Published values gathered from unrelated publications.
Compare with care: the assays were run in different laboratories. Values joined by “and” are separate records of one study, mostly repeats; a detail may differ. ± marks the error that the study gave.

SMILES	assay	system	conditions	how to read	measurement	value
CN(C)C(CNC(=O)Nc1cc(C(F)(F)F)ccc1N1CCOCC1)c1ccncc1 (stereo not shown)	–	mouse, serum	intraperitoneal, 240 mg/kg single dose	–	blood urea nitrogen	26 mg/dL
O=C(O)CC[C@H](NC(=O)O[C@@H](CCCCNC(=O)c1ccc([18F])cc1)C(=O)O)C(=O)O	–	mouse, PC-3 PIP/flu xenografts, kidney	30 min	–	tissue uptake	14.2 ± 8.47 %ID/g
CC(C)C[C@H](NC(=O)[C@H](CCCCN)NC(=O)[C@H](CC(C)C)NC(=O)[C@H](CC(C)C)NC(=O)[C@H](CCCCN)NC(=O)[C@H](CCCCN)NC(=O)[C@H](CC(C)C)NC(=O)[C@H](CC(C)C)NC(=O)[C@H](CCCCN)NC(=O)[C@H](CC(C)C)NC(=O)[C@H](CC(C)C)NC(=O)[C@H](CCCCN)NC(=O)[C@H](CCCCN)NC(=O)[C@H](CC(C)C)NC(=O)[C@@H](N)CSSC[C@H](N)C(=O)N[C@@H](CC(C)C)C(=O)N[C@@H](Cc1c[nH]cn1)C(=O)N[C@@H](CCC(=O)O)C(=O)N[C@@H](CC(C)C)C(=O)N[C@@H](CC(C)C)C(=O)N[C@@H](CCC(=O)O)C(=O)N[C@@H](Cc1c[nH]cn1)C(=O)N[C@@H](CC(C)C)C(=O)N[C@@H](Cc1c[nH]cn1)C(=O)N[C@@H](CCC(=O)O)C(=O)N[C@@H](CC(C)C)C(=O)N[C@@H](CC(C)C)C(=O)N[C@@H](CCC(=O)O)C(=O)N[C@@H](Cc1c[nH]cn1)C(N)=O)C(N)=O	chemical stability, HPLC	mouse, serum	8 h	–	compound remaining	~76.1%
CSCC[C@@H]1NC(=O)[C@@H]2CSSC[C@H](NC(=O)[C@H](CO)NC(=O)[C@H](C)N)C(=O)N[C@@H](CCCNC(=N)N)C(=O)N[C@@H]([C@@H](C)O)C(=O)N3CCC[C@H]3C(=O)N[C@@H](CCCCN)C(=O)N[C@@H](CC(=O)O)C(=O)N[C@H]3CSSC[C@H](NC(=O)[C@H](CCCCN)NC(=O)[C@H](CCCNC(=N)N)NC(=O)[C@H](CC(N)=O)NC1=O)C(=O)N[C@@H](CCCCN)C(=O)N[C@H]1CSSC[C@H](NC(=O)[C@@H]4CCCN4C(=O)[C@H](CC(=O)O)NC(=O)[C@H](C)NC3=O)C(=O)N[C@@H](C)C(=O)N[C@@H](CCCCN)C(=O)N[C@@H](CCC(=O)O)C(=O)N[C@@H]([C@@H](C)O)C(=O)NCC(=O)N[C@@H](CSSC[C@@H](C(N)=O)NC(=O)[C@H](CCCNC(=N)N)NC(=O)[C@H](CC(N)=O)NC1=O)C(=O)N1CCC[C@H]1C(=O)N[C@@H](Cc1ccc(O)cc1)C(=O)NCC(=O)N[C@@H](CCCCN)C(=O)N2	–	DA rat, pristane-induced arthritis, serum	subcutaneous, 0.1 mg/kg once weekly, end of 21-day trial	–	alkaline phosphatase	54.8 U/L
CCCC[C@H]1C(=O)N(C)[C@@H](CCCC)C(=O)N[C@@H](CCCNC(=O)CN2CCN(CC(=O)O)CCN(CC(=O)O)CCN(CC(=O)O)CC2)C(=O)N[C@H](C(=O)NCC(N)=O)CSCC(=O)N[C@@H](Cc2ccc(O)cc2)C(=O)N(C)[C@@H](C)C(=O)N[C@@H](CC(N)=O)C(=O)N2CCC[C@H]2C(=O)N[C@@H](Cc2c[nH]cn2)C(=O)N[C@@H](CC(C)C)C(=O)N(C)CC(=O)N[C@@H](Cc2c[nH]c3ccccc23)C(=O)N[C@@H](CO)C(=O)N[C@@H](Cc2c[nH]c3ccccc23)C(=O)N1C [gallium-68 labelled]	biodistribution	NOD/SCID mice, CHO-hPD-L1 xenograft, CHO-hPD-L1 tumour	60 min post injection, after PBS treatment	–	tumour uptake	7.83 ± 0.22 %ID/g
CC(C)[C@H](NC(=O)CNC(=O)[C@H](CCC(N)=O)NC(=O)[C@H](C)N)C(=O)O	–	human	intravenous infusion, 90 mg/kg/h, 2 h infusion	–	subjects with serious adverse events	0%
C[C@@H]1CC[C@H]2[C@@H](C)CO[C@@H]3O[C@@]4(C)CC[C@@H]1[C@]32OO4	measured: compound	rat, plasma	2.00 ng/mL spiked, 24 h, autosampler at 4 °C	–	stability accuracy	97.5%
CC(=CCC(O)C(C)=Cc1csc(C)n1)CC=CC(C)C(O)C(C)C(=O)C(C)(C)C(O)CC(=O)O (stereo not shown)	–	human, plasma	intravenous infusion, 42 mg/m2 KOS-1584, 3 h infusion, cycle 1	baseline: metabolite over KOS-1584	AUC ratio	7.39 ± 2.01%
CC[C@H](C)[C@@H]1NC(=O)[C@H](CCCCN)NC(=O)[C@H](CCCCN)NC(=O)[C@H](Cc2ccc(O)cc2)NC(=O)[C@H](CC(C)C)NC(=O)[C@@H]2CCCN2C(=O)[C@H](C)NC(=O)CNC(=O)CNC(=O)[C@H](CO)NC(=O)CNC(=O)CNC(=O)[C@H](CO)NC(=O)[C@H](CCC(=O)O)NC(=O)[C@H](CC(C)C)NC(=O)[C@H](CC(C)C)NC(=O)[C@H](CCCCN)NC(=O)[C@H](CCCCN)NC(=O)[C@H]([C@@H](C)CC)NC(=O)[C@H]([C@@H](C)CC)NC(=O)[C@H](CCCCN)NC(=O)[C@H](CCCCN)NC(=O)[C@H](Cc2ccc(O)cc2)NC(=O)[C@H](CC(C)C)NC(=O)[C@@H]2CCCN2C(=O)[C@H](C)NC(=O)CNC(=O)[C@@H]2CSSC[C@H](NC(=O)[C@H](CC(C)C)NC(=O)[C@H](CCCCN)NC(=O)[C@H](CCCCN)NC(=O)[C@H]([C@@H](C)CC)NC1=O)C(=O)N[C@@H](CCC(=O)O)C(=O)N[C@@H](CC(N)=O)C(=O)NCC(=O)N2	hemolysis	uninfected human erythrocytes	1 h	–	HC10	> 128 µM
C[C@H](Nc1c(-c2c(F)cc(OCCCN(C)C)cc2F)c(Cl)nc2ncnn12)C(F)(F)F	–	BALB/c mice, male and female	intraperitoneal, 48 h	–	lowest dose causing intolerance	> 10 mg/kg
CC[C@H](C)C(=O)N1CCC(NC(=O)Nc2ccc(OC(F)(F)F)c(F)c2)CC1	–	healthy volunteers	oral, 24 mg single dose, 14 (unit not given)	–	subjects with any AE	66.7%
COc1cc(NC(=O)C(=O)c2c(C)n(Cc3ccc(Cl)cc3)c3ccc(C)cc23)ccn1	–	cynomolgus monkey, male, plasma	intravenous, 1 mg/kg	–	Vc	480 mL/kg and 344 mL/kg and 606 mL/kg and 453 mL/kg and 455 mL/kg and 385 mL/kg
C[C@H](CCC(=O)N[C@@H](CCCCNC(=O)C(F)(F)F)C(=O)O)[C@H]1CC[C@H]2[C@@H]3[C@H](O)C[C@@H]4C[C@H](O)CC[C@]4(C)[C@H]3C[C@H](O)[C@]12C	–	C57BL/6J mice, liver	oral, 50 mg/kg	–	AUC(0-24 h)	0.232 mM·h

For quick reference, copied from above:
SMILES	assay	system	conditions	how to read	measurement	value
CCCC[C@H]1C(=O)N(C)[C@@H](CCCC)C(=O)N[C@@H](CCCNC(=O)CN2CCN(CC(=O)O)CCN(CC(=O)O)CCN(CC(=O)O)CC2)C(=O)N[C@H](C(=O)NCC(N)=O)CSCC(=O)N[C@@H](Cc2ccc(O)cc2)C(=O)N(C)[C@@H](C)C(=O)N[C@@H](CC(N)=O)C(=O)N2CCC[C@H]2C(=O)N[C@@H](Cc2c[nH]cn2)C(=O)N[C@@H](CC(C)C)C(=O)N(C)CC(=O)N[C@@H](Cc2c[nH]c3ccccc23)C(=O)N[C@@H](CO)C(=O)N[C@@H](Cc2c[nH]c3ccccc23)C(=O)N1C [gallium-68 labelled]	biodistribution	NOD/SCID mice, CHO-hPD-L1 xenograft, CHO-hPD-L1 tumour	60 min post injection, after PBS treatment	–	tumour uptake	7.83 ± 0.22 %ID/g
CC(C)[C@H](NC(=O)CNC(=O)[C@H](CCC(N)=O)NC(=O)[C@H](C)N)C(=O)O	–	human	intravenous infusion, 90 mg/kg/h, 2 h infusion	–	subjects with serious adverse events	0%
